Measurements pooled from the literature.
Parts stem from different laboratories: compare values within a part only. Changes are numbered by the printed parent chain.

Block 1 — technique: RNA Bind-n-Seq; form: RNA; matrix: in vitro; concentration: 365 nM; relative to: no-protein control; direction: higher = stronger binding
Target: RNA binding protein fox-1 homolog 2, RRM domain, GST-SBP tag (RBFOX2, Homo sapiens, UniProt O43251-10, residues 100-194)
Setting: natural RNA segment, single round, ends assumed
Shared flanks, not repeated: GGGAGUUCUACAGUCCGACGAUC … UGGAAUUCUCGGGUGCCAA
Construct (chain): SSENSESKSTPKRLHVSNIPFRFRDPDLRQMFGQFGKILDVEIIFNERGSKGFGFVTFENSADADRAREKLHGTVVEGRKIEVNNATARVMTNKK
Sequence	RBNS enrichment (R)
UUGAACCUAACCUGCAUCCCAUUUCCAGCCUCUUUUCAAGCUGAGAAAAAAACAAAAAACACGUUUGAUACUUUGUACAUCAUAUGCAUCUUAUUUAAAGGGAUACUUUU	0.885
CCACCCCAUGUUACAGCAAGACUGGUCUUACAGAGUGAGUACUCUGGGUGAUGCUUACGGGAAGGAGAUUGGUAGAUGCAGUCUUUUUUUCCCCCUUAGCACUUGUAUGA	0.589
CAUCUCUCCCACCCGGCUCUAGGCCAAAAGGCUCGGUACCUCCUUACUGGGAGCCACGUAAAUGGAACCUUGACCAUAUUUCUGCAAUAAACAGUUUAAUUUGUGUCUUU	0.24
AAGAGAAGAGACACUAGCCAUAAAAUCUAGUUUCUAUUUAUCAACGUGUUGUGAAGAUGUACCUAAUGAAGUUUUGAGAAAGCACAGGGUUAUAGGUGUUUAAAUUUCCU	0.449
CCCAGGGCCACUGGGGGAAUGUUUUAUGAAAUCAUGUAGAGUGCUGUAGUUUUGAAGUCAUCCGUUUUUUGAUGACAAAGUACCUGUGGAAAACCAGGGAUAUUUUUUUU	0.703
CAUUGGUUUUAAUAAACUCUAAGGUAGUUAAAGAUGAAGGGCCAGCAUAUAUUUAUAUGAUAAGUUUAGAUUAUGAGCGUGAGUACCAAUUAAGUUUGAAUGAAUGCCCC	0.328
ACGUGGAUCCAUCCCUGCCAUUGUGUGAGUCAGAGGGAUAGAUCUGAAGCCUGUGAAUGAUGUCUGGUACACCACAGUGUUUUCUCCAGAGAACUGGCCUAAGCUCUAGA	0.79
AGAGCAUAUAAUACUAUCUUAGCCAAACUUGCCUUUGCUUCACUCAUCAUGCAGCCUUCUGGGUUGGUUGCUAUAUAUAUCUUUUUUCCUUGAUGUCCCGUUCUCUUCCA	0.31
UCAUGGCAUUGGUAAAUAUGGCAACGACUCCUACCGGAUCUUUUGUGUCAAUGAAUGGAAGCAGGUGCACCCUGAAGACCACAAGUUAAAUAAAUACCAUGACUGGCUUU	1.1
GGCGGGGGCGCCCCGGUGAGCGCGGGGACGAUUUUCUAACCCCAGGGAGAACUCGCCAGAGACUGAGAGCAGAGACCACUUAUCCUCAUUGCUUACCCCGAGCCGGGGUU	0.387
UUACAUCUGGGAUACAGUCUAACUCAUCUGAUUUAAUAUGCAUUUAAAAAAAUGCCAUAACUAUUAAACACCUUGUUUACAGACAGAUGAAAUAAAUUUAUUCCAACCAA	0.282

Block 2 — technique: RNA Bind-n-Seq; form: RNA; matrix: in vitro; concentration: not given; relative to: input RNA pool; direction: higher = stronger binding
Target: RING finger protein unkempt homolog, zinc fingers 1-6, GST-SBP tag (UNK, Homo sapiens, UniProt Q9C0B0, residues 30-357)
Sequence of UniProt Q9C0B0 (30-357, looked up): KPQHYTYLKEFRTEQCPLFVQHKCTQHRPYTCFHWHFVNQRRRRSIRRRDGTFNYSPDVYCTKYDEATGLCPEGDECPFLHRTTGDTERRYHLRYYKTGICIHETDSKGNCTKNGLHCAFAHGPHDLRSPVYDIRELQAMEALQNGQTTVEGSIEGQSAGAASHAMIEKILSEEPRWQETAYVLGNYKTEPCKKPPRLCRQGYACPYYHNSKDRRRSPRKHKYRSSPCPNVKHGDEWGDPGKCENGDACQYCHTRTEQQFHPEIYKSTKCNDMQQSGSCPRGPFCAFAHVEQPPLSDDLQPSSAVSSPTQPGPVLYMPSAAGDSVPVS
Setting: RNA with constant flanks, human and mouse sites, ends assumed
Shared flanks, not repeated: GGGAGUUCUACAGUCCGACGAUC … CAACAGAGGAUUGAGCAUCA
Sequence	bound/input enrichment [ratio]
AGUCAUGUAGAAAAUGAAGCUUUUCCAAAGACCUCUUCAGCAACCCCACAAGAAACUCUUAUUUCUGAUGGUCCCUUCUCAGUAAAUGAACAACAGGAUCUACCACUUUUGGCAGAAGUC	0.146
GCGCCGGCUCUUGUCCCACUAGGAGCAGCUCAGAGCCGCGGGGACAGGGCGAAGCGGCCUGCGCCCACGGAGCGCACGUCUCUGUUCUCAACGCAGCACCACCCUUGCCCCCCUCGGCUG	0.297
UGCUUAACUAAUGGGAUAGUGCUAUGGUCACGGAUGGCUUCUUUAGUAAUAAGUGCACUCACUGGUUACAUUUGGAUGGCUUAUGUAACCACAAACAUCAUCUUUCUUGUCUCACUUGAG	4.07
AUUGGAAUUGACAUGGAGAUAUCAAAAAAUUUUCAACGUAUACUUCAGAGGCAAGGAUUUAAGUUUAAACUGAAUACAAAAGUUACUGGUGCCACCAAGAAGUCAGAUGGAAAAAUUGAU	0.384
AAUGUAGAUUUUUGCUUUUCCUGUUUUUGUUUUGAAAAGUUACUCCAAUUGCUAAAUUGGUAGUUUUUUUGUCCUUAUAAAUAUAACAUUUAAAAAAGAUACACAAUUAUAUAAAAUGUU	3.87
UUUAAUGUGAUGAUGUAAUUGACGGUUUUUUAUUAUUGUGGUAGGCCUUUUAACAUUUUGUUCUUACACAUACAGUUUUAUGCUCUUUUUUACUCAUUGAAAUGUCACGUACUGUCUGAU	0.392
AUUGAUGAGCUGAAGAAAGAGAUGGCUAUGAACUUUGGAGACUGGCAUCUUUUUAGAAGCAUGGUCUUAGAAAUGAGAAGUGUGGAAAACCAGGUGGUCCCCGAAGACCCACGUUUUCUC	0.187
ACACCAAAAGGUAAAGGCCGAGGGGCAAAGAAAAGGAAAGCAUCUGGCUCUGAAAAUGAAGGCGAUUAUAACCCUGGCAGGAAAACAUCCAAAACAACAAGCAAGAAACCGAAGAAGACA	0.38
ACGUUUUUAUGGUCCCCUAUGCCUGAACAUUAUGUGGAAGGAUCAACAGUCAAUUGUGUACUAGCAUUCCAAGGAUAUUACCUUCCAAAUGAUGAUGGAGAAUUUUAUCAGUUCUGUUAC	0.16
CCAGUACCUCUCAAACGAUCUUUAGAUAGUUAACUUCUACUACUAUUUAACGUUAUCUUUUAGCACUCAUAGAACAAACCAAGAUAUGGAAGAAGACAUAUUCAAAAGGUGGGCUUGUCU	9.25
GAAGGUUUCUUUACCAACGGUUUGACUCUUGGAGCAAAGAAGUGUUCUGUGAUCAGAGAUAGCCUAUACGUUGAUGGUGACUGCACAAUGGACAUCCGGACAAAGAGUCAAGGUGGGGAG	0.405

Block 3 — target: CCNB1, cyclin fold, Cln2 fusion (human); technique: yeast growth competition, sequencing; matrix: yeast; setting: weak parent motif; relative to: not given; direction: higher = stronger binding
Starting sequence: ASZ1 docking peptide (human); GFGFLLFICKLTF
Change	normalised enrichment score
T12A	0.33
F13A	0.592
L11A	0.377
I8A	0.3
G1A	0.745
C9A	0.856

Other studies, line by line
Substance	target	test	system	conditions	scale	measurement	result
PhoQ, residues 284 288 289 292 302 303 ALSMDL	PhoP, residues 12 14 15 18 19 GHCSL (Escherichia coli, UniProt P23836)	Sort-seq, measured: YFP reporter	E. coli	PhoQ-PhoP variant library, with: 10 µM Mg2+	relative to: high Mg2+ state, higher = stronger signaling	fold induction	17.9
